# Measured values of several laboratories.
# A part holds a random share of what one study measured. Several values in a cell are separate wells, animals, samples, runs or records.

# Study 1
# Target: Cyclin-dependent kinase 12, with cyclin K (CDK12, Homo sapiens, UniProt Q9NYV4)
# Sequence of UniProt Q9NYV4 (whole entry, looked up): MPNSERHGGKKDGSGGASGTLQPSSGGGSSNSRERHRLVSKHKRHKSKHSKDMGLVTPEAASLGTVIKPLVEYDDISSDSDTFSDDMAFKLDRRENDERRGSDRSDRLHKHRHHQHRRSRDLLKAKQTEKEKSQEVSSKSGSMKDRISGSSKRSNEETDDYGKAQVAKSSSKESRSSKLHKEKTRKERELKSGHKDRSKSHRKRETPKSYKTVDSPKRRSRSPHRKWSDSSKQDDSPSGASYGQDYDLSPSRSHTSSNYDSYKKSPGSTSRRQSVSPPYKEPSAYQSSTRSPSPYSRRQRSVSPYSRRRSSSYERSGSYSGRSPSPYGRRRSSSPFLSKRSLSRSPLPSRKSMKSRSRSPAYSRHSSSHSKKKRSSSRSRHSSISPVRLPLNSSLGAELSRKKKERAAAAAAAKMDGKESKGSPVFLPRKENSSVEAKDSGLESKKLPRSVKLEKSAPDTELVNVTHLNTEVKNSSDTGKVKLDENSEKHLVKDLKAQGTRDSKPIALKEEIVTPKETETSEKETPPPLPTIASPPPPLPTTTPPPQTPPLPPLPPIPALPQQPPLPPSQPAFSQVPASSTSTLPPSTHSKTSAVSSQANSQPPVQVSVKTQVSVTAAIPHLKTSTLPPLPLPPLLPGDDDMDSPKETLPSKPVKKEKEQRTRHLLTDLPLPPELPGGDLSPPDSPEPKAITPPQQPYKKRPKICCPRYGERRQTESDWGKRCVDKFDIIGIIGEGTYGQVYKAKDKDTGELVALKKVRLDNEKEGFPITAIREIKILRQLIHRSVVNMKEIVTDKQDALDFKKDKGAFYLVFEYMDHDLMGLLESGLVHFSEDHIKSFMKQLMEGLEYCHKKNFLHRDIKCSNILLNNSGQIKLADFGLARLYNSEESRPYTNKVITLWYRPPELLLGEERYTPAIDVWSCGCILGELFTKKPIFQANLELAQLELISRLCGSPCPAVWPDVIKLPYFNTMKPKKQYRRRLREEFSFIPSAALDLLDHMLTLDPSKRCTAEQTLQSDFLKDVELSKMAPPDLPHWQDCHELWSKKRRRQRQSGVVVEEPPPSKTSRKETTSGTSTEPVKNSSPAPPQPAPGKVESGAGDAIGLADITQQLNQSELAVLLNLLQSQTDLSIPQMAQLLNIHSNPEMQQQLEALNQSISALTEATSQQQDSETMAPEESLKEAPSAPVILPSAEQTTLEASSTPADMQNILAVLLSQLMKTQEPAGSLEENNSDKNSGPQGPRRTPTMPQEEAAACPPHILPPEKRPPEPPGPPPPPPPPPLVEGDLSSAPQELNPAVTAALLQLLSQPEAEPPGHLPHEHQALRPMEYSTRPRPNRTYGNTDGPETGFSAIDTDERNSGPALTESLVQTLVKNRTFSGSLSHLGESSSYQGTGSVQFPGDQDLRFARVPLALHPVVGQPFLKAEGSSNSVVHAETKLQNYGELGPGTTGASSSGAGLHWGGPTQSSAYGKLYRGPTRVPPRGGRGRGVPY
# Effect on: kinase activity
# Action: inhibitor
# Method: ADP-Glo
# Concentration: 0.0001 µM
Compound,inhibition
CCn1cnc2c(NCc3nc4cc(Cl)c(Cl)cc4[nH]3)nc(N3CCN(C(=O)c4ccccn4)CC3)nc21,-5.7%
CCn1cnc2c(NCc3nc4cc(Cl)c(Cl)cc4[nH]3)nc(N3CCN(C(=O)c4ccncc4)CC3)nc21,-0.5%
CCn1cnc2c(NCc3nc4cc(Cl)c(Cl)cc4[nH]3)nc(N3CCN(C(C)=O)CC3)nc21,9.5%
CCn1cnc2c(NCc3nc4cc(Cl)c(Cl)cc4[nH]3)nc(N3CCN(C(=O)c4cccnc4)CC3)nc21,-17.5%
CCn1cnc2c(NCc3nc4cc(Cl)c(Cl)cc4[nH]3)nc(N3CCN(C(=O)[C@H](C)NC(C)=O)CC3)nc21,-17%
CCn1cnc2c(NCc3nc4cc(Cl)c(Cl)cc4[nH]3)nc(N3CCN(S(C)(=O)=O)CC3)nc21,-7.9%
Cn1cc(-n2cnc3c(NCc4nc5cc(Cl)c(Cl)cc5[nH]4)nc(N4CCNCC4)nc32)cn1,-6.8%
CCn1cnc2c(NCc3nc4ccc(F)c(F)c4[nH]3)nc(N3CCn4ncnc4C3)nc21,12.3%
CCn1cnc2c(NCc3nc4cc(Cl)c(Cl)cc4[nH]3)nc(N3CCN(Cc4ccncc4)CC3)nc21,-6.7%
CCn1cnc2c(NCc3nc4cc(Cl)c(Cl)cc4[nH]3)nc(N3CCn4ncnc4C3)nc21,10.7%

# Study 2
# SMILES: C[C@@H]1CN(c2ccc(-c3cc(C(=O)NCCOCCOCCOCCOCCNC(=O)Cn4cc(-c5[nH]cc(C(=O)N[C@@H](CC(N)=O)c6ccc(F)c(Cl)c6)c5-c5ccc(Cl)cc5F)cn4)ccc3F)cc2NC(=O)c2c[nH]c(=O)cc2C(F)(F)F)C[C@H](C)N1C
# Effect on: thermal unfolding
# Method: differential scanning fluorimetry
# Concentration: 5.5 µM
# Reading: higher = more unfolded
# DCAF1: DDB1- and CUL4-associated factor 1 (DCAF1, Homo sapiens, UniProt Q9Y4B6)
# Sequence of UniProt Q9Y4B6 (whole entry, looked up): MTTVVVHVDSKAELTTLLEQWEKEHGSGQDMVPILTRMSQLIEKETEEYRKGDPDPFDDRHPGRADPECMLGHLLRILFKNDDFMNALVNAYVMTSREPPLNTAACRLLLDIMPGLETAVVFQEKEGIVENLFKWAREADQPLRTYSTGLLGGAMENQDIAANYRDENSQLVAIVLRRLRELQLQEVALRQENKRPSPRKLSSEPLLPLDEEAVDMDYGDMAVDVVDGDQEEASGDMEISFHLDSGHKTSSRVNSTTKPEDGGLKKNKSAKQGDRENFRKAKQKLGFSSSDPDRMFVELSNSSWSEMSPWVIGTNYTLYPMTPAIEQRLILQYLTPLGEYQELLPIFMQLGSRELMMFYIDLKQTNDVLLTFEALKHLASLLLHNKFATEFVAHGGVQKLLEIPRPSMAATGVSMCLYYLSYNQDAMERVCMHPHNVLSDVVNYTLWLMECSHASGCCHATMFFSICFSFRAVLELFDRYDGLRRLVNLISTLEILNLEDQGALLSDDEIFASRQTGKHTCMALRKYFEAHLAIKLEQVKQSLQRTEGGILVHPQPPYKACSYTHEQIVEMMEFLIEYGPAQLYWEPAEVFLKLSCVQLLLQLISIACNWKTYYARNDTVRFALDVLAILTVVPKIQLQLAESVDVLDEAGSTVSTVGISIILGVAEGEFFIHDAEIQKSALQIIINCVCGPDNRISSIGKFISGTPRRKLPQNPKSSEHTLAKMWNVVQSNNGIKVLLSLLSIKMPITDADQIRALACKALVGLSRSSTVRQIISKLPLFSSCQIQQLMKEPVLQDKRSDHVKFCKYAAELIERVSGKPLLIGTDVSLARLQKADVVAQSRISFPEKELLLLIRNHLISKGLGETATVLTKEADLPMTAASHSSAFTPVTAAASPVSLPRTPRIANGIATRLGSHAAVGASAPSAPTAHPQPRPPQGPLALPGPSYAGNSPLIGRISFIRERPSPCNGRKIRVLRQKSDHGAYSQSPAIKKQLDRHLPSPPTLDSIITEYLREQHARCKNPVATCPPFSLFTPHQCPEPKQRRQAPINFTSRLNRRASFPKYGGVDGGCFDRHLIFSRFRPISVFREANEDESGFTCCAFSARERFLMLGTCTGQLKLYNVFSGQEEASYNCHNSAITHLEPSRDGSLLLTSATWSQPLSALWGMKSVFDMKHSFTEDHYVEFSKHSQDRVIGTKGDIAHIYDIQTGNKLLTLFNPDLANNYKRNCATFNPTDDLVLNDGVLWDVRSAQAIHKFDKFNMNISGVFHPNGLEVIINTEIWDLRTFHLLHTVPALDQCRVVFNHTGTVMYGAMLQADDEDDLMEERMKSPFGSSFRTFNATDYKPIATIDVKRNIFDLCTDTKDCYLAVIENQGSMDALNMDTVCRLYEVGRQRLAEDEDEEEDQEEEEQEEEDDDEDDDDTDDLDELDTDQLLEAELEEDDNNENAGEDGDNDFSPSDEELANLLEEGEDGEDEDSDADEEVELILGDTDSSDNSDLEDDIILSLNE
# WDR5: WD repeat-containing protein 5 (WDR5, Homo sapiens, UniProt P61964)
target,setting,SYPRO Orange fluorescence
DCAF1,48.8 °C,13800 a.u.
WDR5,36.4 °C,14300 a.u.
WDR5,32.4 °C,14400 a.u.
WDR5,63.41 °C,8550 a.u.
WDR5,48 °C,14400 a.u.
WDR5,43.4 °C,14400 a.u.
WDR5,33.4 °C,14300 a.u.
DCAF1,91.81 °C,33400 a.u.
DCAF1,79.21 °C,44900 a.u.
WDR5,33.2 °C,14300 a.u.
DCAF1,45.2 °C,12200 a.u.

# Study 3
# Target: E3 ubiquitin-protein ligase NEDD4, HECT domain (Homo sapiens, UniProt P46934)
# Effect on: enzyme activity
# Action: inhibitor
# Method: Ub-TR-FRET
# Sample: HECT domain
# Concentration: 33.33 µM
# Reading: higher = more chain formation
# Target sequence (P46934 938-1319, limits assumed): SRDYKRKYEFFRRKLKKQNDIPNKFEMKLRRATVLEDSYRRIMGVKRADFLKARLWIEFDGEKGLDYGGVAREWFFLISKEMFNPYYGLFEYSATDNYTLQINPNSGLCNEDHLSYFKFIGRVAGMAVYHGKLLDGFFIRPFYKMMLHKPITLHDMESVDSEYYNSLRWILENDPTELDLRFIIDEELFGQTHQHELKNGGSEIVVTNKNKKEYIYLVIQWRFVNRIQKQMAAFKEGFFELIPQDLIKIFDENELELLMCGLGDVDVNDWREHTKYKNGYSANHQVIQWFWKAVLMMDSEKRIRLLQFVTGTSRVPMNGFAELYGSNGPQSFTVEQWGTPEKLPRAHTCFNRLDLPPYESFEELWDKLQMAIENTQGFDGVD
Structure (SMILES),ubiquitin chain formation AUC
CONC(=O)/C=C/CNCCCCN1c2ccccc2CCc2ccc(Cl)cc21.O=C(O)/C=C\C(=O)O,7260 a.u. and 6580 a.u. and 6860 a.u. and 5970 a.u. and 5960 a.u. and 6350 a.u.
CNC(=O)/C=C/CNCCCCN1c2ccccc2CCc2ccc(Cl)cc21.Cl,21400 a.u. and 29800 a.u. and 19900 a.u. and 39200 a.u. and 30300 a.u. and 23400 a.u.
CCOC(=O)/C=C/CN(CC)CCCCN1c2ccccc2CCc2ccc(Cl)cc21.O=C(O)/C=C\C(=O)O,13000 a.u. and 13400 a.u. and 11700 a.u. and 12400 a.u. and 14000 a.u. and 13200 a.u.
CN(C)C(=O)/C=C/CNCCCN1c2ccccc2CCc2ccc(Cl)cc21.Cl,113000 a.u. and 114000 a.u.
CNC(=O)/C=C/CNCCCN1c2ccccc2CCc2ccc(Cl)cc21.Cl,83700 a.u. and 83900 a.u. and 84200 a.u.
CCOC(=O)/C=C/CNCCCCN1c2ccccc2C(=O)N(C)c2ccc(Cl)cc21.O=C(O)/C=C\C(=O)O,13300 a.u. and 14000 a.u. and 14300 a.u.
CCOC(=O)/C=C/CNCCCCN1c2cc(Cl)ccc2C(=O)N(C)c2ccccc21.O=C(O)/C=C\C(=O)O,8320 a.u. and 8180 a.u. and 8770 a.u.
CN(C)C/C=C/C(=O)NCCCN1c2ccccc2CCc2ccc(Cl)cc21,101000 a.u. and 99500 a.u. and 100000 a.u.
CCOC(=O)/C=C/CNCCCN1c2ccccc2CCc2ccc(Cl)cc21,6070 a.u. and 6210 a.u. and 5470 a.u.
CNCCCN1c2ccccc2CCc2ccc(Cl)cc21,123000 a.u. and 121000 a.u. and 128000 a.u.
CCOC(=O)/C=C/CNCCCCN1c2cc(Cl)ccc2CCc2cnn(C)c21.O=C(O)/C=C\C(=O)O,12000 a.u. and 6640 a.u. and 6780 a.u. and 7480 a.u. and 12100 a.u. and 11700 a.u.
N#C/C=C/CNCCCCN1c2ccccc2CCc2ccc(Cl)cc21.O=C(O)/C=C\C(=O)O,9260 a.u. and 9990 a.u. and 9480 a.u. and 10800 a.u. and 10400 a.u.

# Study 4
# SMILES: C=CC(=O)N1CCN(c2nc(OC[C@@H]3CCCN3C)nc3c2CCN(c2cccc4cccc(C)c24)C3)C[C@@H]1CC#N
# Effect on: binding
# Action: competitor
# Method: NanoBRET
# Cell line: HEK293
# KRAS G12D: GTPase KRas (KRAS, Homo sapiens, UniProt P01116, G12D)
# KRAS Q61L: GTPase KRas (KRAS, Homo sapiens, UniProt P01116, Q61L)
# KRAS G13D: GTPase KRas (KRAS, Homo sapiens, UniProt P01116, G13D)
target,setting,normalized BRET
KRAS G12D,247 nM,88.9% and 84.7%
"GTPase KRas (KRAS, Homo sapiens, UniProt P01116, Q61H)",741 nM,49.5% and 61.9% and 44.6%
KRAS G12D,9.77 nM,118%
KRAS Q61L,247 nM,83.6% and 82.8% and 80.7%
KRAS Q61L,2.22 µM,47.5% and 42.3% and 40.7%
"GTPase HRas (HRAS, Homo sapiens, UniProt P01112)",1.02 nM,96% and 97.1%
KRAS G12D,27.4 nM,91.8% and 88.1%
KRAS G13D,6.67 µM,37.5% and 22.5% and 21%
KRAS G13D,27.4 nM,99.2% and 87.9% and 88.3%
KRAS G13D,741 nM,59.5% and 52.3% and 61.6%
